Measured values from different studies.
Each line is one published result; not all experiments were run side by side. Numbers after ± are the reported error.
Cell line: MDA-MB-231

Substance	assay	conditions	endpoint	value
COc1cc2cc(c1Cl)N(C)C(=O)C[C@H](OC(=O)[C@H](C)N(C)C(=O)CCS)[C@]1(C)O[C@H]1[C@H](C)[C@@H]1C[C@@](O)(NC(=O)O1)[C@H](OC)/C=C/C=C(\C)C2	cell growth or viability, ATP luminescence	–	IC50	0.108 µM
O=c1c2ccccc2nc(S)n1Cc1cccnc1	cell growth or viability, crystal violet	48 h	IC50	> 100 µM
Cc1ccc(C(C)C)cc1.[Cl][Ru]([Cl])[PH]12CN3CN(CN(C3)C1)C2	cell viability, PrestoBlue	–	IC50	750 µM
COc1cc(/C=C/C(O)=C/C(=O)/C=C/c2ccc(O)cc2)ccc1O	cell growth or viability, MTT	48 h	IC50	11.4 µg/mL
O=C(Cn1cnc2ccccc2c1=O)Nc1ccc(O)cc1[N+](=O)[O-]	cell growth or viability, crystal violet	48 h	IC50	> 100 µM
CC[C@@H](C(=O)[C@@H](C)[C@@H](O)[C@H](C)[C@@H]1O[C@@H]([C@@H](CC)C(=O)O)CC[C@@H]1C)[C@H]1O[C@]2(C=C[C@@H](O)[C@]3(CC[C@@](C)([C@H]4CC[C@](O)(CC)[C@H](C)O4)O3)O2)[C@H](C)C[C@@H]1C	cell growth or viability, MTT	72 h	IC50	4.9 µM
Trastuzumab emtansine	cell viability, CellTiter-Glo	5 d, concentration as DM1 content	IC50	1.614 ± 0.0107 µM
O=C1CCCCC1=C1Sc2nc3ccc(S(=O)(=O)N4CCCC4)cc3nc2S1	cell growth or viability, MTT	24 h	IC50	2.26 µM
O=C(Cn1cnc2ccccc2c1=O)Nc1ncccc1O	cell growth or viability, crystal violet	48 h	IC50	> 100 µM
CN1C(=O)C(Cc2c[nH]c3ccccc23)NC1=S (stereo not shown)	–	100 µM, together with: etoposide 25 µM	caspase-3/7 activity	inhibited

A few entries again:
Substance	assay	conditions	endpoint	value
O=C(Cn1cnc2ccccc2c1=O)Nc1ncccc1O	cell growth or viability, crystal violet	48 h	IC50	> 100 µM
Cc1ccc(C(C)C)cc1.[Cl][Ru]([Cl])[PH]12CN3CN(CN(C3)C1)C2	cell viability, PrestoBlue	–	IC50	750 µM
